Experimental data gathered from unrelated publications.
Each line is one published result; not all experiments were run side by side.
Target: Dual specificity mitogen-activated protein kinase kinase 4 (MAP2K4, Homo sapiens, UniProt P45985)

Compound	test	system	setting	scale	measurement	result
Nc1ncc2c(n1)-c1c([nH]c3ccc(C4=CCOCC4)cc13)CCC2	binding, competition with immobilised ligand		1 µM		remaining binding	86%
NC(=O)[C@@H](O)C[C@H]1CCc2sc3ncnc(O[C@H]4CC[C@H](N5CCOCC5)CC4)c3c21	enzyme activity, inhibitor		10 µM		inhibition	-3%
COc1cc(Nc2nc(C)cc(-c3cnn4nc(OC)ccc34)n2)cc(C(F)(F)F)c1	inhibitor		1 µM, MEK4	relative to: control	remaining activity	74%
CNC1C[S+]2CC[S+]3CC[S+](C1)[Ru-4]321([N]=C=S)[n]2c3ccc(OC)cc3c3c4c(c5cc(F)c[n+]1c5c32)C(=O)NC4=O (stereo not drawn)	KinomeScan		0.1 µM	relative to: untreated	remaining binding	100%
CCCCCC(O)/C=C/C=O (stereo not drawn)	competitive isoTOP-ABPP	Ramos soluble proteome	100 µM, added: iodoacetamide probe	relative to: DMSO over compound-treated, higher = stronger cysteine blockade	isoTOP-ABPP competition ratio	1.2
CNC(=O)C1CCN(c2cc(C)c(F)cc2NC(=O)c2ccc(-c3cc(O)ccc3C)c(C)c2)CC1	binding, competition with immobilised ligand		1 µM		remaining binding	100%
Nc1ncc(-c2cc(-c3cnn(CC(F)(F)F)c3)ncc2F)nc1C(=O)NC1CNCC(F)C1 (stereo not drawn)	enzyme activity		1 µM	relative to: DMSO control	remaining activity	97.6%
COc1cc(Nc2nccc(-c3cnn4nc(OC)ccc34)n2)cc(C(F)(F)F)c1	binding, competition with immobilised ligand		1 µM		remaining binding	94%
C=CC(=O)N1CCCC(n2c(=O)c3ncccc3n(Cc3ccc(Oc4ccccc4)cc3)c2=O)C1 (stereo not drawn)	cell-free assay, competition with immobilised ligand		1 µM		remaining binding	95%
CCN1CCN(Cc2ccc(C(=O)Nc3ccc(C)c(NCc4cnc5[nH]ccc5c4OC)c3)cc2C(F)(F)F)CC1	binding, competition with immobilised ligand		1 µM		remaining binding	91%
NC(=O)C[C@H]1CCc2sc3ncnc(O[C@H]4CC[C@H](N5CCOCC5)CC4)c3c21	enzyme activity, inhibitor		10 µM		inhibition	-2%
Cc1cnc2nc1Nc1cccc(c1)COC/C=C/COCc1cc(ccc1OCCN1CCOCC1)N2	binding, competition with immobilised ligand		0.1 µM		remaining binding	98%
C=CC(=O)N1CCc2ccc(-n3c(=O)ccc4cnc5ccc(-c6cnn(C)c6)cc5c43)cc21	KINOMEscan		1 µM	relative to: DMSO control	remaining binding	100%
Cc1c[nH]c2nccc(-c3ccc(C(=O)N[C@@H]4c5c(F)cc(C(F)F)cc5C[C@@H]4O)cn3)c12	binding, competition with immobilised ligand		3 µM		remaining binding	2.6%
CCCCCCCCCCCCC/C=C/C=O	competitive isoTOP-ABPP	Ramos soluble proteome	100 µM, added: iodoacetamide probe	relative to: DMSO over compound-treated, higher = stronger cysteine blockade	isoTOP-ABPP competition ratio	1.1
CN1CCN(Cc2ccc(-c3ccc(CO[C@H]4CCC[C@@H]4NC(=O)c4cc(-c5cnn(C)c5)cnc4N)cc3)cc2)CC1	enzyme activity, inhibitor		0.1 µM		inhibition	28%
CC(C)=CC1OC(C)(C)C2C=C3C(=O)C(Cl)=CC(O)C3C3C(O)C4OC4C(=O)C132 (stereo not drawn)	cell-free assay, competition with immobilised ligand		10 µM		remaining binding	81%
COc1c(Cl)cccc1Nc1c(-c2ccncc2C#C[C@@]2(C)CCCN2C(=O)/C=C/CN(C)C)[nH]c2c1C(=O)NCC2	binding, competition with immobilised ligand		3 µM		remaining binding	92%
C=CC(=O)N1Cc2nc(-c3cc(-c4cc(Cl)cnc4Cl)c(F)cc3F)n(-c3ccncn3)c2C1	cell-free assay, inhibitor		1 µM		inhibition	1.1%
COc1c(OCCCN2CCOCC2)ccc2c1N=C(NC(=O)c1cnc(N)nc1)N1CCN=C21	kinase activity, inhibitor		1 µM	relative to: untreated control	remaining activity	78%
Cc1ccc(-c2c(/C=C(\C#N)C(=O)NC(C)C)n(CCCO)c3ncnc(N)c23)cc1	cell-free assay, competition with immobilised ligand		1 µM		remaining binding	75%

For quick reference, copied from above:
Compound	test	system	setting	scale	measurement	result
CN1CCN(Cc2ccc(-c3ccc(CO[C@H]4CCC[C@@H]4NC(=O)c4cc(-c5cnn(C)c5)cnc4N)cc3)cc2)CC1	enzyme activity, inhibitor		0.1 µM		inhibition	28%
CC(C)=CC1OC(C)(C)C2C=C3C(=O)C(Cl)=CC(O)C3C3C(O)C4OC4C(=O)C132 (stereo not drawn)	cell-free assay, competition with immobilised ligand		10 µM		remaining binding	81%
